Measurements gathered from unrelated publications.
Protocols differ between the studies behind these lines. ± marks the error that the study gave.
GLP1R: Glucagon-like peptide 1 receptor (GLP1R, Homo sapiens, UniProt P43220)
Sequence of UniProt P43220 (whole entry, looked up): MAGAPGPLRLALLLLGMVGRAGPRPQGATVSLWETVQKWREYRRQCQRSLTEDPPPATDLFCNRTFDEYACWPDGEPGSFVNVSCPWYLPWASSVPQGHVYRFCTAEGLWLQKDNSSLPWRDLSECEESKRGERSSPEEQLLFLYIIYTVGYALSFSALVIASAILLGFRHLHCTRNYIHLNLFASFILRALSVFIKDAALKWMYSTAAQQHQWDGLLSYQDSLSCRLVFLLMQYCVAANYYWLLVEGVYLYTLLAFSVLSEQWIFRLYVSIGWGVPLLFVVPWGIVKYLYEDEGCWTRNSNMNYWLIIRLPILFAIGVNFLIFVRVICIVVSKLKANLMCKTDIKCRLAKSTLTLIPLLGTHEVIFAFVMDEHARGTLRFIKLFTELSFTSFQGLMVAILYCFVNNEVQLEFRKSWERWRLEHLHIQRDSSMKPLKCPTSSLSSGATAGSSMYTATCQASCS
T1: FMN riboswitch RNA (Escherichia coli); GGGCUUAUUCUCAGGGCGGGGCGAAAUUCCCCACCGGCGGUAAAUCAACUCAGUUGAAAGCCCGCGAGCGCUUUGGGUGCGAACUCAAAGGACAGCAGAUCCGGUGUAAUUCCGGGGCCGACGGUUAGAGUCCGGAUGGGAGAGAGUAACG
Sequence of UniProt Q9BQB4 (whole entry, looked up): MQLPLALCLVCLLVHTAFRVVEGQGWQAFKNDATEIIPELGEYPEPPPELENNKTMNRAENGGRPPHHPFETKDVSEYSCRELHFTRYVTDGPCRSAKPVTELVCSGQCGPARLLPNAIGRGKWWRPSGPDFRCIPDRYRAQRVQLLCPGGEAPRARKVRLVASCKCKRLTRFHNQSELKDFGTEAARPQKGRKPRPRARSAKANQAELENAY
Sequence of UniProt Q8N5Y8 (whole entry, looked up): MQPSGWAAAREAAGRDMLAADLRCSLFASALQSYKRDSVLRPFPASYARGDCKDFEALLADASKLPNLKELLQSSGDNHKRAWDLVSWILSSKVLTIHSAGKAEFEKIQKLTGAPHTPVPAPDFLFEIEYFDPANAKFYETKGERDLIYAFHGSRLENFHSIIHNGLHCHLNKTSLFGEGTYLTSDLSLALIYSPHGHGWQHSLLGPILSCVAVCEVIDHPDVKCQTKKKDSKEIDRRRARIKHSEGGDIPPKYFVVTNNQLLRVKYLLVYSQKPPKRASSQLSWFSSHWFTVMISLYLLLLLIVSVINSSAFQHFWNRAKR
Sequence of UniProt P17931 (whole entry, unmodified, looked up): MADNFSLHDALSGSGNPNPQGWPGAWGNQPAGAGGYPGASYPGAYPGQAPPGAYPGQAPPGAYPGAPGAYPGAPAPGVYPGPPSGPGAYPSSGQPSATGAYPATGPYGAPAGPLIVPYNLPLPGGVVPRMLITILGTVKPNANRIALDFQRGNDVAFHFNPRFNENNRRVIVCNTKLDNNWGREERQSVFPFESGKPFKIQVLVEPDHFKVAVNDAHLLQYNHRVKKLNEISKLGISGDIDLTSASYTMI
Sequence of UniProt P31645 (whole entry, looked up): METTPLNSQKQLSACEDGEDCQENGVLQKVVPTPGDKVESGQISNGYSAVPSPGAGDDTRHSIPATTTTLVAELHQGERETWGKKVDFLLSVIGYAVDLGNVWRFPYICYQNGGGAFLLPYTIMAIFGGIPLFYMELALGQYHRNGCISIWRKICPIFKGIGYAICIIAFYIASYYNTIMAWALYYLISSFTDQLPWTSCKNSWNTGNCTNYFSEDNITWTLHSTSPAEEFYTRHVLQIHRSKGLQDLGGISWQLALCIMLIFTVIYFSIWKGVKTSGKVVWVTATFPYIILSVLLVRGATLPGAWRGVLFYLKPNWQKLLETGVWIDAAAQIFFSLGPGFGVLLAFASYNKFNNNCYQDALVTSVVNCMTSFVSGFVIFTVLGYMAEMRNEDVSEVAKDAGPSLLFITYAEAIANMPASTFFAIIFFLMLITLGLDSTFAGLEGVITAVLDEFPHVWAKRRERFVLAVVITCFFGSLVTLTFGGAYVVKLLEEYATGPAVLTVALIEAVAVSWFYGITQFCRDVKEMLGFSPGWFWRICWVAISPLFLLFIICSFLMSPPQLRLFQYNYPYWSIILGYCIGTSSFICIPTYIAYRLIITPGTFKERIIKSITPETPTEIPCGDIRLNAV
Sequence of UniProt P10275 (whole entry, looked up): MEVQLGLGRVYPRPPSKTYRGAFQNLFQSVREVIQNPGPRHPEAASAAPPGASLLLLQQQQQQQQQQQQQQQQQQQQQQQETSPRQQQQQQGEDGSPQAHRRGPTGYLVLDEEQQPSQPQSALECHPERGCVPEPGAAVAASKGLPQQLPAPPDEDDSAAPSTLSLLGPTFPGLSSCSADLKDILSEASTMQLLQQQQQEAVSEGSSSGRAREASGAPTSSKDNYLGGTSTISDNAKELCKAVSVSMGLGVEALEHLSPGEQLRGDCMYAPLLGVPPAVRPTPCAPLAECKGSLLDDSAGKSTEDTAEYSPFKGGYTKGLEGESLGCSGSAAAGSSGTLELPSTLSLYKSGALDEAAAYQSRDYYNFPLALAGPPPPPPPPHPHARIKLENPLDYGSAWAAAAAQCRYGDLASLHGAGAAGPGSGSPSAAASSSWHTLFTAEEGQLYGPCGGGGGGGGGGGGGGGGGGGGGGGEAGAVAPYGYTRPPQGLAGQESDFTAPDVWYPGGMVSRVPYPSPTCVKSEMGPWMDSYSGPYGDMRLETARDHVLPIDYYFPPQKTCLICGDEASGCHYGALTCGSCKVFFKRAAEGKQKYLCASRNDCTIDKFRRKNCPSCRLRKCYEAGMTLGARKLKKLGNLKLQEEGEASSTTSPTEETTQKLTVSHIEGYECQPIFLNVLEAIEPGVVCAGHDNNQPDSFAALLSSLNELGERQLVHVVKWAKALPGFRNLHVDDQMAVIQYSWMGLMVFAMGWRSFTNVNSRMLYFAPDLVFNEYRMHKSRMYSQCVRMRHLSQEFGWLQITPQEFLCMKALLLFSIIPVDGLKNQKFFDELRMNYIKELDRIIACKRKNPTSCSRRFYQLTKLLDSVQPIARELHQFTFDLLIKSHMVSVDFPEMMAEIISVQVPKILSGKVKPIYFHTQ
Sequence of UniProt P05067 (whole entry, looked up): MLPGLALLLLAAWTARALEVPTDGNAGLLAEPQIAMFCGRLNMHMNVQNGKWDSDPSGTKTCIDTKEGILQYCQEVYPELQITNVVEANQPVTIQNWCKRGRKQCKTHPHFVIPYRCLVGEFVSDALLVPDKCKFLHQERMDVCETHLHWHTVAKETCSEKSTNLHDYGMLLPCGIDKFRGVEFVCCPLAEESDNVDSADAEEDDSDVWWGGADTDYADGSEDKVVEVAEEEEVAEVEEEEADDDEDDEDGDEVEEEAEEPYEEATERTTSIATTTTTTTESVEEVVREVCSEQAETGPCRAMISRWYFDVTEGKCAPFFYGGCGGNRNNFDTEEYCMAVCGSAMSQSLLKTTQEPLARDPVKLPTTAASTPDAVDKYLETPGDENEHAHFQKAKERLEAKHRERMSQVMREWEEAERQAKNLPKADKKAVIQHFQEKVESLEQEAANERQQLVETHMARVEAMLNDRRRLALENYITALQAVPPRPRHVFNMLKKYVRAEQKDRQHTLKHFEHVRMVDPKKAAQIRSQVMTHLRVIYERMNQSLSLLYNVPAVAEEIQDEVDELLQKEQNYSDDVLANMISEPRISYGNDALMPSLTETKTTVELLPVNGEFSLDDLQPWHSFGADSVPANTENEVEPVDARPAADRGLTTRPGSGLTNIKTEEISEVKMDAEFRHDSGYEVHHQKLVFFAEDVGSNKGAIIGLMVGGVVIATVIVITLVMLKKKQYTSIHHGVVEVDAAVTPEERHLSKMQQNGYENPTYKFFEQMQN

C#Cc1ccc2c(=O)[nH]nc(Cc3ccc(F)c(C(=O)N4CCN(C(=O)C=C)CC4)c3)c2c1 — time to labeling saturation (PARP16 (Homo sapiens, UniProt Q8N5Y8); covalent labeling, click chemistry in-gel fluorescence; HEK293T; 300 nM): ~120 min
CC(C)C[C@H](NC(=O)CN)C(=O)N[C@@H](CO)C(=O)N[C@@H](Cc1ccccc1)C(=O)N[C@@H](C)C(=O)N[C@@H](Cc1ccccc1)C(=O)N1CCC[C@H]1C(=O)N[C@@H](C)C(=O)N[C@@H](CCCCN)C(=O)N[C@@H](CC(=O)O)C(=O)N[C@@H](C)C(=O)N[C@@H](CCC(=O)O)C(=O)N[C@@H](CC(N)=O)C(=O)N[C@@H](C)C(=O)N[C@@H](CO)C(=O)N[C@@H](CO)C(=O)N1CCC[C@H]1C(=O)N[C@H](C(=O)O)C(C)C — ΔG (Peptide cyclase 1 (Gypsophila vaccaria, UniProt R4P353, S562A); ITC; pH 8.0, 25 °C): -9.01 kcal/mol
CO[C@H]1O[C@H](CO)[C@@H](O)[C@H](O)[C@@H]1O — complex half-life (lecB (Pseudomonas aeruginosa, UniProt Q9HYN5); surface plasmon resonance): 45 s
CC[C@H](C)[C@H](NC(=O)[C@H](Cc1ccccc1)NC(=O)[C@H](CCC(=O)O)NC(=O)[C@H](CCCCN)NC(=O)[C@H](C)NC(=O)[C@H](C)NC(=O)[C@H](CCC(N)=O)NC(=O)CNC(=O)[C@H](CCC(=O)O)NC(=O)[C@H](CC(C)C)NC(=O)[C@H](Cc1ccc(O)cc1)NC(=O)[C@H](CO)NC(=O)[C@H](CO)NC(=O)[C@@H](NC(=O)[C@H](CC(=O)O)NC(=O)[C@H](CO)NC(=O)[C@@H](NC(=O)[C@H](Cc1ccccc1)NC(=O)[C@@H](NC(=O)CNC(=O)[C@H](CCC(=O)O)NC(=O)CNC(=O)[C@@H](N)Cc1c[nH]cn1)[C@@H](C)O)[C@@H](C)O)C(C)C)C(=O)N[C@@H](C)C(=O)N[C@@H](Cc1c[nH]c2ccccc12)C(=O)N[C@@H](CC(C)C)C(=O)N[C@H](C(=O)N[C@@H](CCCCN)C(=O)NCC(=O)N[C@@H](CCCNC(=N)N)C(=O)N[C@@H](CSC1CC(=O)N(CCC(=O)NCCCCC(NC(=O)CCN2C(=O)CC(SC[C@H](NC(=O)[C@H](CCCNC(=N)N)NC(=O)CNC(=O)[C@H](CCCCN)NC(=O)[C@@H](NC(=O)[C@H](CC(C)C)NC(=O)[C@H](Cc3c[nH]c4ccccc34)NC(=O)[C@H](C)NC(=O)[C@@H](NC(=O)[C@H](Cc3ccccc3)NC(=O)[C@H](CCC(=O)O)NC(=O)[C@H](CCCCN)NC(=O)[C@H](C)NC(=O)[C@H](C)NC(=O)[C@H](CCC(N)=O)NC(=O)CNC(=O)[C@H](CCC(=O)O)NC(=O)[C@H](CC(C)C)NC(=O)[C@H](Cc3ccc(O)cc3)NC(=O)[C@H](CO)NC(=O)[C@H](CO)NC(=O)[C@@H](NC(=O)[C@H](CC(=O)O)NC(=O)[C@H](CO)NC(=O)[C@@H](NC(=O)[C@H](Cc3ccccc3)NC(=O)[C@@H](NC(=O)CNC(=O)[C@H](CCC(=O)O)NC(=O)CNC(=O)[C@@H](N)Cc3c[nH]cn3)[C@@H](C)O)[C@@H](C)O)C(C)C)[C@@H](C)CC)C(C)C)C(N)=O)C2=O)C(=O)NCCCCCCN)C1=O)C(N)=O)C(C)C (stereo partly drawn) — potency ratio (GLP1R; cAMP, agonist; HEK293 expressing GLP1R; reference: GLP-1): 13.6 fold
CN(C)CCNC(=O)c1ccc(C2(NC(=O)c3cc4cc(C(=O)O)cnc4n3C)CC2)cc1 — Kd (T1, FMN riboswitch RNA (Escherichia coli); ITC; KCl 100 mM): 0.0114 µM
[11CH3]Nc1ccc(-c2nc3ccc(O)cc3o2)cn1 — distribution volume ratio (APP (Homo sapiens, UniProt P05067); binding, PET, reference Logan; control subjects, anterior cingulate cortex; reference: cerebellum): 0.8 ± 0.09
CC(=O)N[C@@H]1[C@@H](O[C@@H]2O[C@H](C(=O)O)[C@@H](O[C@@H]3O[C@H](COS(=O)(=O)O)[C@@H](OS(=O)(=O)O)[C@H](O[C@@H]4O[C@H](C(=O)O)[C@@H](O[C@@H]5O[C@H](COS(=O)(=O)O)[C@@H](OS(=O)(=O)O)[C@H](O[C@@H]6O[C@H](C(=O)O)[C@@H](OS(=O)(=O)O)[C@H](OS(=O)(=O)O)[C@H]6OS(=O)(=O)O)[C@H]5NC(C)=O)[C@H](OS(=O)(=O)O)[C@H]4OS(=O)(=O)O)[C@H]3NC(C)=O)[C@H](OS(=O)(=O)O)[C@H]2OS(=O)(=O)O)[C@H](OS(=O)(=O)O)[C@@H](COS(=O)(=O)O)O[C@H]1N=[N+]=[N-] — binding affinity ratio (Sclerostin (SOST, Homo sapiens, UniProt Q9BQB4); FP competition; reference: cpd over monovalent azide analogue, higher = stronger binding): 12 fold
Cn1c(=S)c2[nH]c(SCCCc3ccccc3)nc2n(C)c1=O — remaining activity (Androgen receptor (AR, Homo sapiens, UniProt P10275); reporter gene, antagonist, PSA-luciferase; HeLa-A6; 10 µM, 24 h, with: 5 nM dihydrotestosterone; reference: maximal activity): 122%
COc1c(F)c(F)c(C(=O)N[C@H]2[C@@H](O)[C@@H](CO)O[C@@H](S[C@@H]3O[C@H](CO)[C@H](O)[C@H](NC(=O)c4c(F)c(F)c(OC)c(F)c4F)[C@H]3O)[C@@H]2O)c(F)c1F — –TΔS (Galectin-3 (LGALS3, Homo sapiens, UniProt P17931); ITC; Kd fixed from FP): 3.82 ± 0.239 kcal/mol
COc1ccc(-c2cc(C(F)(F)F)nc(SCC(=O)N(C)c3ccccc3)n2)cc1 — cooperativity factor alpha (GLP1R; affinity cooperativity, allosteric modulator; HEK-293T overexpressing GLP1R; with: GLP-1(9-36)): 2.9
CC(/C=C/C(O)=C1/C(=O)CNC1=O)=C\[C@@H](C)[C@H]1O[C@@]2(C)O[C@H](C[C@@H]3O[C@@]32C)[C@@H]1C — Km (Cytochrome P450 TamI (Streptomyces sp. 307-9, UniProt D3Y1J3); substrate): 34.9 ± 5.5 µM
O=C(NCCCN1CCC(Cc2ccccc2)CC1)c1cccc2ccccc12 — IC50 (SLC6A4 (Homo sapiens, UniProt P31645); serotonin uptake, inhibitor; HEK293; with: [3H]serotonin): 7.51 µM

Excerpt of the above:
Cn1c(=S)c2[nH]c(SCCCc3ccccc3)nc2n(C)c1=O — remaining activity (Androgen receptor (AR, Homo sapiens, UniProt P10275); reporter gene, antagonist, PSA-luciferase; HeLa-A6; 10 µM, 24 h, with: 5 nM dihydrotestosterone; reference: maximal activity): 122%
CO[C@H]1O[C@H](CO)[C@@H](O)[C@H](O)[C@@H]1O — complex half-life (lecB (Pseudomonas aeruginosa, UniProt Q9HYN5); surface plasmon resonance): 45 s
